Measured values pooled from the literature.
Compare with care: the assays were run in different laboratories. Numbers after ± are the reported error.

Nc1ccn([C@@H]2O[C@H](CO)[C@@H](O)C2(F)F)c(=O)n1
AUC extrapolated (human patients, plasma; intravenous, 800 mg/m2, median, before paricalcitol): 0.21%

CC(C)(C(=O)N1CCOc2c(C#N)cncc2C1)C(F)F
AUC dose proportionality ratio (healthy humans, both sexes, plasma; oral, 40 mg single dose, 1.33-fold dose increase; baseline: 40 mg over 30 mg): 2.12

C=CC(=O)N1CCC[C@@H](n2c(=O)n(-c3ccc(Oc4ccccc4)cc3)c3c(N)nccc32)C1
AUC fed/fasted ratio (human; oral, 60 mg; baseline: fed over fasted): 2.23

N#Cc1cc(NC(=O)[C@H]2c3ccccc3C(=O)N(CC(F)(F)F)[C@@H]2c2cccnc2)ccc1F
AUC (human, plasma; oral, 600 mg, median): 25.1 µg·h/mL

COc1ccc2nc([S@@+]([O-])Cc3ncc(C)c(OC)c3C)[nH]c2c1
AUC (human, dried blood spots; oral, 10 mg omeprazole, together with: fluvoxamine): 0.605 µg·h/mL

N#Cc1ccc(C(c2ccc(C#N)cc2)n2cncn2)cc1
AUC at steady state per dose (human patients, plasma; oral, 12.5 mg daily): 6.5 ± 1.83 µg·h/mL/mg

Cc1cc(-c2nccc3c2ccn3CC(=O)Nc2ccc(-c3cnccn3)cn2)ccn1
AUC (human, plasma; oral, 20 mg once daily, day 1, geometric mean): 1.63 µM·h

O=C(COc1ccc(Cl)cc1)NC12CC(c3nnc([C@H]4C[C@@H](OC(F)(F)F)C4)o3)(C1)C2
AUC (healthy human volunteers fasted, plasma; oral, 100 mg single dose, geometric mean): 87.1 µM·h

COc1ccc2nc([S@@+]([O-])Cc3ncc(CO)c(OC)c3C)[nH]c2c1
AUC fold change (human, dried plasma spots; dose not given, mean, together with: fluvoxamine and voriconazole; baseline: inhibition over control): 2.51 fold

C=CC(=O)Nc1cc(Nc2nccc(-c3cn(C)c4ccccc34)n2)c(OC)cc1N(C)CCN(C)C
AUC at steady state (human patients; oral, dose not given, cycle 3 day 1, safety run-in, geometric mean, together with: pemetrexed + carboplatin): 10.2 µM·h
